Measurements pooled from the literature.
Parts stem from different laboratories: compare values within a part only.

Block 1
Target: RNA binding protein fox-1 homolog 2, RRM domain, GST-SBP tag (RBFOX2, Homo sapiens, UniProt O43251-10, residues 100-194)
Technique: RNA Bind-n-Seq
Form: RNA
Matrix: in vitro
Concentration: 365 nM
Notes: natural RNA segment, single round, ends assumed
Relative to: no-protein control
Reading: higher = stronger binding
Endpoint: RBNS enrichment (R)
Constant ends, left off below: GGGAGUUCUACAGUCCGACGAUC … UGGAAUUCUCGGGUGCCAA
Target sequence (chain): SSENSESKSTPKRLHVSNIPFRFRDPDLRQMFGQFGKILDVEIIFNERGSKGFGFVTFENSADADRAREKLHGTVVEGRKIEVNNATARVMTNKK
AGAACUAGCAAGUGUCCCAAUUUUUUCCAAACGUUGGGGAGGGGAAAAUUCACUGUAUCAUGAAACCCUAAGGGUUUGUUGCACUUCCUGCUUUUUAGGCCUGGAUAACA: 0.59
AGGUGCUCACUGACUCGCUAAGACGACUUUGGCCCUGUUGAUGACUGGUGCUGUGCUCCAGCCUUAUCAGUUAGGGGACCCAAGGUUUGUUUGGGACCUGGGUACAGGUA: 0.374
AGGCCAUAUGUAAAAACCCUUCCAAUGCCUAAGUGUCUUUCUCCUGCAACUCCAAACCCAGACUCGCCACUUUGGGUGCACAGGUGGUUAGGUCAGCCAACUGGUUCUGC: 0.428
UUUAGUUUUUGCCUUCAUGUUAUACAUUUAUGAUUUGAAACUGUACAUCUGUUACCUUGAAAAACAUUGAAGAAAGUACUGAAGUGUGCAUGGAGGUGGUUUAAGCAUAA: 2.11
UUCCCAGGGUGAUUUCCUCAGUGCACAGGCAGCUCGAGAUGGAGGGAGGACAGCCACCAACUAGCUCACUCAGCAUUUUAAACUUGAGUUCCUUUGAUAUCUGAGUUUAU: 1.56
ACUUAUCUUGGGAAUGCCUGCAUGAGGAAGGAGAACGACCUGCCCUGAGGGUCAGUGCUCAGCCCAGCCCUCCACUGUUGGUGGCAACCGUGGGACACCUCAUUCCCUAC: 8.28
AUGCUUUGUGUAAUUUAUAACAAGGAUUUUUUUUUUAGCUUUGUUAACUGUGAAUUCACCCCUCCUCCUCCACUGCAUAUUUAAAGCAUGUGUUCACACUGUGUGUAAAC: 2.06
GUCUUUUCCUAUCCGAGAUUCUAGAGGAGGAAGACCUUGGGCUCCGACUACUUCAAAAUGAUCUGAAAAGUUAUCACACAAAAAGGGUCUACUGUAGGAUCUUACAUUCU: 0.275
UCUCAUCUUGUCAGAGCCCUAUGUGCUAUAUCCACAUUUAUAUAUAUUUUUUCUAGCCUAUGUAGUUGUUCAGCUUUUAACAAAUAACUCUGGCAGUAUUUUAAACAUGC: 0.732
CAGGCUGGACCAAGGGUGGGCCUGGCCACCUUCUCUCACUUUGCUGGGGUCUCCUGCUUCAAGCAGGCUUCUCCCACUCCAAUCCCCUGCCCCAUCUCCCCAUAGCCUGA: 0.384
AGGACAGAGGGAGAAAGAUCUGAUCCAAAUGAGAACAGAUUGGUUAUUGCAGGUAUCACAGCCUAAAGAAAUUAUCUUUUUGCAAAAGAAAUAUUAAAUGAUUUAGCAGU: 0.612
UCUAGAAAAGUAAAAUCUACUUUUGUAUCAGUGUGAAUAAAGUUAGUGUGUUGUCUGUGCAGCUGCACACGGAUGCCUUUGAGGCGCUGUCUGUCAUGCUUCCGGGCUCC: 0.259

Block 2
Target: RING finger protein unkempt homolog, zinc fingers 1-6, GST-SBP tag (UNK, Homo sapiens, UniProt Q9C0B0, residues 30-357)
Chain of UniProt Q9C0B0 (30-357, looked up): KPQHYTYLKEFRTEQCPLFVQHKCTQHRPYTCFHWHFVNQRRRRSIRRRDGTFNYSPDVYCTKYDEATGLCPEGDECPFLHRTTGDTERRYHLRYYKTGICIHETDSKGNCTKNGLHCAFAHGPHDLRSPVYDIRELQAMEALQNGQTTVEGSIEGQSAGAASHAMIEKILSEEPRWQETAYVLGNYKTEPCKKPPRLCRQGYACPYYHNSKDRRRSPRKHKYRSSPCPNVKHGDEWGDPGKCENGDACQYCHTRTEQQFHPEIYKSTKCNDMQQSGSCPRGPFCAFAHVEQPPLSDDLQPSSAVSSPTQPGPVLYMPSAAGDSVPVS
Technique: RNA Bind-n-Seq
Form: RNA
Matrix: in vitro
Concentration: not given
Notes: RNA with constant flanks, human and mouse sites, ends assumed
Relative to: input RNA pool
Reading: higher = stronger binding
Endpoint: bound/input enrichment
Constant ends, left off below: GGGAGUUCUACAGUCCGACGAUC … CAACAGAGGAUUGAGCAUCA
GAUACAUCCAACAGAGUAACAGUCAAGAGCCUUGAUUAUAGUAGGAAGCUGAAAAAUGUAUUAGUUACCAUUUACUGGCUGGGAAAAGCAGCAAACAGCUGCACAUCCUACAGCGGAACG: 0.494 ratio
UAUUUCAUGAAGCCACUGCAUGGUAAAUAUGCAACUUCACGUUUUUCUGUUUUUAACACAUUUAGACCUUGGUUAAAAAUUCCUUUUGUUUAUGAUAAUUGUUUUUGCCAUUUGUAUAUU: 0.647 ratio
GUUUUCUAUUCUCCCUCUACCUUAUCCCCCACCCCCACCCCACCCCACCCCUUUUUUAUUUAGUUUUAUUUACUUUACCUAGUAUGGCUUUUUUAGUUGCUUCUCAAGUCAGAAAACUUC: 3.85 ratio
GGCACCUUCUUCCCCAUGGGGGAUGAGGGUGCCAGCAGCCAGAUCGGCCGGGCUGCGGGCACAGGCUUCACCGUCAACGUGGCAUGGAACGGGCCCCGCAUGGGUGAUGCUGACUACCUA: 0.155 ratio
AAAGAUAUAGAUUGUGUAUACGAAGCUUUAUUGAACACUGCCAUUGACGUAGAUUCAUUAGAAGCAAACUCACAUUUAGAUGAAGUCUGGAUCAAAGAAGUUAUAAAGAAGGCAGGAAUG: 0.72 ratio
UGGAUCUCCCCCGAGACCACCGCCCGGCCCCACCUGGCUGUCAUCGGGCUGGAUGCCUACCUGUGGUACCGCUCACUCUCAUGCCCACAGCAGGGCUGGCUGGGACGGGGGUUCAGGGGA: 0.12 ratio
AUAAAGAUAUCUAGCCAAAAUCUCAAUCUUGCCUUAACAAUGUUUCAGAGACUGAAUAAAAUGUUUGUAGGCGAAGUCACUACUUCUUCCAGCCAAGAACCAGAAUUCAGUGAGAAAGAA: 0.621 ratio
GUUCAGAAGAGGUUUGGCUUUCCAGAGGGCAGUGUAGAGCUUUAUGCUGAAAAGGUGGCCACUAGAGGUCUGUGUGCCAUUGCCCAGGCAGAGUCUCUGCGUUACAAACUCCUAGGAGGG: 0.202 ratio
UUUCCACUAAAGCCUUUUGGAAAGCGGUGAUUUGAGGGGCAAGGUGCUUAGAGAUACUCGCUCGCUGGGGAAGGGGGGAGGGAGGCAGUGGUGGCUGGAGGGUGCGCCACUUUCAGAGCC: 0.466 ratio
CUACAGUGAAACGGGAGAACUGCUUGGUUCGGGAUGGCUAGAGAAUCAAGGGAAAGCACAACCUUGGACUCACACUCUGCAGAGGACCAGAUGGAGCUACUGGUCAUAAAGGUGGAACAA: 0.28 ratio
AAACUUACACUGGUUUGACAGUGGUCAGUUACAUGUCCCCACAGUUCCAAUGUGCCUGUUCACUCACCUCUCCCUUCCCCAACCCUUCUCUACUUGGCUGCUGUUUUAAAGUUUGCCCUU: 0.326 ratio

Block 3
Target: Histone acetyltransferase KAT6A, winged helix 2, GST fusion (KAT6A, Homo sapiens, UniProt Q92794, residues 85-181)
Technique: protein binding microarray
Form: double-stranded DNA, one strand shown
Matrix: in vitro
Concentration: not given
Notes: 8-mer, flanks averaged, mean of 2 arrays, mostly near background
Relative to: not given
Reading: higher = stronger binding
Endpoint: E-score
Construct (chain): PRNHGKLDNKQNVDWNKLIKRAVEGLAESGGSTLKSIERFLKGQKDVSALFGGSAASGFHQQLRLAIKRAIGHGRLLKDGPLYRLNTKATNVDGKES
CCAGGGCG: 0.188
CATACTTA: -0.135
CACAAATC: -0.0318
ACCGGGCC: 0.0878
CTCCTGGA: -0.11
ACCTAGTC: -0.168
TCTTATCA: 0.0521
CGTACCAC: 0.0222
CCTATGTA: -0.111
ACTCCTAC: -0.18
ATTAGGCC: -0.065
CTTTCAGA: 0.0722
ACTAAAAA: 0.0202
GCGCTACC: 0.0132
CTGTGAGC: 0.103
AGCGGTAC: 0.00304
AAGGTACC: 0.0112
CATGTTTA: -0.158
CTGGTATC: 0.00421
AGAGGTAA: 0.0331
CTATATGA: 0.0381
CGGCGAGA: 0.135
ATGCCCCA: -0.0909

Block 4
Target: Ras GTPase-activating protein-binding protein 1, C-terminal RGG region (G3BP1, Homo sapiens, UniProt Q13283)
Chain of UniProt Q13283 (whole entry, looked up): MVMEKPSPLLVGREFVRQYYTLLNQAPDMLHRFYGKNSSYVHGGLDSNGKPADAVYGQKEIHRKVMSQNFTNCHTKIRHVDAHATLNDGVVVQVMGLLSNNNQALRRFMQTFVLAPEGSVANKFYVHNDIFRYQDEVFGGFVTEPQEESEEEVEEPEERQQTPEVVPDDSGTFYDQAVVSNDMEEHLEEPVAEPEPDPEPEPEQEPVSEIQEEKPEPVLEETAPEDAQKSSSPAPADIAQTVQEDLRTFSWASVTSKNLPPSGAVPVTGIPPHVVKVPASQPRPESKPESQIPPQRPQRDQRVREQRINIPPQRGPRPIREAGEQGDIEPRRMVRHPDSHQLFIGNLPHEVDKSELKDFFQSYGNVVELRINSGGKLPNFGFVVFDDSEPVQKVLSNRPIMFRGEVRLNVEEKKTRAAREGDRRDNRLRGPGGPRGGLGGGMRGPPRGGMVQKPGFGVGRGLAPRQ
Technique: RNA Bind-n-Seq
Form: RNA
Matrix: in vitro
Concentration: 1 µM
Notes: whole 134-nt RNA, ends assumed
Together with: 150 mM KCl
Relative to: input library
Reading: higher = stronger binding
Endpoint: log2 enrichment
Constant ends, left off below: GGGAGUUCUACAGUCCGACGAUC … UGGAAUUCUCGGGUGUCAAGG
AAGUCCUGUGCUACACAUCGUAUGUACCGAAUCGGGAAAAAGGGAGGGAAAAAGGGAAAGUAUUAUGUUACGCCGUUCGGAUCUGCACUU: 1.02
UUAGGAAGAGAAGACAAGGUGGCCUCUCAUUAGAAGAAGAGGAAGAGGAGGAUGCCAAUUCAGAAUCUGAGGGAAGCAGUAGUGAGGAGG: -2.28
CACAGACAACACGCACCCACACAGACACAGAGGGAAGGGAUUGGGAUGGGGACAGGGUGCACAGCAGGGCGGGGUAGGACCCCAGCCCCU: -0.4
ACCAUGCAGGUGGGCAUCUUUGGGAAGUGGGGCAAGGGGGGGAUAGGGAGGGGGGUAACCCUUUGGGAACAGGUGGUCCCAGGUCGUUUC: 2.39
UGGGAGGUGGAUUUUGUUUAUUUUUGUAGCUCAUUUCCAGGGGUGGGAAUUUUUUUUUAAUAUGUGUCAUGAAUAAAGUUGUUUUUGAAA: 3.68
ACCAUGCAGGUGGGCAUCUUUGGGAAGUGGGGCAAGGGGGGGAUAGGGAGGGGGGUAACACUUUGGGGACAGGUGGUCCCAGGUCGUUUC: 2.24
UGGAGAGGGAAGUCCCAAUGGUGCUAGAAUGGUGCUGCAGUGGCAGAAGACGGCUCACAAGUGAGGUCUGGAAGAACAACAGGGAAGACA: -0.631
UUUCGGCUACCCCCAGUUCUUCUUUGCCAAAGCGUACACGUGAAGAGGAAGAGGAUAGCACCAUAGAAGCAUCAGACCAAGUCUCUGAUG: -1.49
UGGGAGGUGGAUUUUGUUUAUUUUUUUAGCUCAUUUCCAAGGGUGGGAAUUUUUUUUUAAUAUGUGUCAUGAAUAAAGUUGUUUUUGAAA: 3.41
UCCUCAAGUCCUGUGCUACACAUCGUAUGUACCGAAUCGGGGUGGUGGUGGAAAGUAUUAUGUUACGCCGUUCGGAUCUGCACUUCCAGC: -0.621
UGGUGACCUACCUGGACGUCCGGAGCUGCCUUGGACACCUAGGCUACCUGGGCUACCCCACCCUCUGUGAGCAGGACCAGGCCCAUGCCA: -0.0644
CCUGUGCUACACAUCGUAUGUACCGAAUCGGGCCCCCCGGGGCCCCCCGGGGCCCCCCGGGAAAGUAUUAUGUUACGCCGUUCGGAUCUG: -1.94
UGGCCCUGGUGGCAUGCGGGGAGGAAGAGGUGGCCUCAUGGAUCGUGGUGGUCCCGGUGGAAUGUUCAGAGGUGGUCGUGGUGGAGACAG: 3.71
CCUCAAGUCCUGUGCUACACAUCGUAUGUACCGAAUCGGUGGGGUGGGUGGGAAAGUAUUAUGUUACGCCGUUCGGAUCUGCACUUCCAG: 0.99

Some of these lines once more (block 3):
ATTAGGCC: -0.065
CACAAATC: -0.0318
AGAGGTAA: 0.0331
CCTATGTA: -0.111
AGCGGTAC: 0.00304
